Measured values of several laboratories.
Every numbered part comes from another study and shows a few of its results, in no order. “And” joins repeats or separate records; there may be more than shown.
UniProt Q02763, sequence (whole entry, looked up): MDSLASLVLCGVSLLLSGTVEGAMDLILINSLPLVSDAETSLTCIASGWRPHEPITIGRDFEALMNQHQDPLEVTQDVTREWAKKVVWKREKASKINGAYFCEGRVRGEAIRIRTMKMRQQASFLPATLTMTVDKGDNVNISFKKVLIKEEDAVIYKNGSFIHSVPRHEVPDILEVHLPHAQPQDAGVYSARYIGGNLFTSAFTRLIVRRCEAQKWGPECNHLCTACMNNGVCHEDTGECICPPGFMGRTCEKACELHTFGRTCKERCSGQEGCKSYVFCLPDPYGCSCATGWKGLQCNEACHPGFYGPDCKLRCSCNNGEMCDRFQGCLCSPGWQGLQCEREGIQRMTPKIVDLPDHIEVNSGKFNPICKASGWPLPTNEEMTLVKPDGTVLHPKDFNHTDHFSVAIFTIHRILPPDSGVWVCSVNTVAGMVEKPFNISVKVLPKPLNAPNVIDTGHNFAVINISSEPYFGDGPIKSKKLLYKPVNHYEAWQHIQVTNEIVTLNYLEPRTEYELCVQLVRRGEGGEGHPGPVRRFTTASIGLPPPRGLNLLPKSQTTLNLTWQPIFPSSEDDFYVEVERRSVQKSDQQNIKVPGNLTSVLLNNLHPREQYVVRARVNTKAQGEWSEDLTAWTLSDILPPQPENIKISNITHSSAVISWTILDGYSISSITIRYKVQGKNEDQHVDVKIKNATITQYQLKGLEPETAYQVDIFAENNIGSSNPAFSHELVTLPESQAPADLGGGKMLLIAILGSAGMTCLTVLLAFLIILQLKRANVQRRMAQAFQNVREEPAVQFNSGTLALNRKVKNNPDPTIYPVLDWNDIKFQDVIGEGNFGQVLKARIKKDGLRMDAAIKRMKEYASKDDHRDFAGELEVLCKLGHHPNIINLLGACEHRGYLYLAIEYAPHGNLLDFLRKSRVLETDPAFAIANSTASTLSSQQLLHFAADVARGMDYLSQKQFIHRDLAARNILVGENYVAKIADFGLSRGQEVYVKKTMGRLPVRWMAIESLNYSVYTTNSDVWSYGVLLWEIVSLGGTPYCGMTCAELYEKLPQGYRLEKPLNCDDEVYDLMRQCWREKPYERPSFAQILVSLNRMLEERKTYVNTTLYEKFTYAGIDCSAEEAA
UniProt P54646, sequence (whole entry, looked up): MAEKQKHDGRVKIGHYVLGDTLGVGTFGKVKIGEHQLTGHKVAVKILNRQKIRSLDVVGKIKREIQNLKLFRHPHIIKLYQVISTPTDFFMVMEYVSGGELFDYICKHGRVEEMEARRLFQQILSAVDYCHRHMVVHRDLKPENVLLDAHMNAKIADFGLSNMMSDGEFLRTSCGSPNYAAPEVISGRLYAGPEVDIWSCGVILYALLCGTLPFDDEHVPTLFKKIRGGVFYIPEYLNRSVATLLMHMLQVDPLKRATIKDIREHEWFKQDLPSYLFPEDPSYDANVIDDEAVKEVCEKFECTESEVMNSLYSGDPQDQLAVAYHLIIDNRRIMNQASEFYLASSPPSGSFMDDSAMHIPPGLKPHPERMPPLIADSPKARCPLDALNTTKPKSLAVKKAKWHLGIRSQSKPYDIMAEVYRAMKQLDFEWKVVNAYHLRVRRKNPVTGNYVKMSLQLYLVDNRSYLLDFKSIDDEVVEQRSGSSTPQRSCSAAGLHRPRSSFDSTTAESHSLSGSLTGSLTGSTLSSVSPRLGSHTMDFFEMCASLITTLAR
UniProt P09769, sequence (whole entry, looked up): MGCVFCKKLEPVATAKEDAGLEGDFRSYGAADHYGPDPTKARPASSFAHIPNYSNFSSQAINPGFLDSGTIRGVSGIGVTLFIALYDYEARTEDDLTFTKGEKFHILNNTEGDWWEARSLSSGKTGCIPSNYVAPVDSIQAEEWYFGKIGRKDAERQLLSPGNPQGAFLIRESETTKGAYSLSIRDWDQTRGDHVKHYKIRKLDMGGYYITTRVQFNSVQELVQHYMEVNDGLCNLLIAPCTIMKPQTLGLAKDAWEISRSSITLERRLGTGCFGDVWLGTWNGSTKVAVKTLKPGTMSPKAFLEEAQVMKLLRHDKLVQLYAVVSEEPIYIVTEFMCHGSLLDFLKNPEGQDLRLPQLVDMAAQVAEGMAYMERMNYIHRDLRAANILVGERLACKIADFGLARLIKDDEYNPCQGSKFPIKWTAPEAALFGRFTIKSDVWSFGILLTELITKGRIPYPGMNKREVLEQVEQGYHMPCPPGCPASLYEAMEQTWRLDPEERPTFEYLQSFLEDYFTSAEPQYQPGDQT

Set 1 — measurement: degradation
SMILES: Cc1ccc(O)c(C)c1-c1cnc2[nH]c(-c3cnc(N4CCC5(CC4)CC(N4CCN(c6ccc(NC7CCC(=O)NC7=O)cc6F)CC4)CO5)nc3)cc2c1C#N (stereo not shown)
Target: Membrane-associated tyrosine- and threonine-specific cdc2-inhibitory kinase (PKMYT1, Homo sapiens, UniProt Q99640)
Target sequence (Q99640 1-499): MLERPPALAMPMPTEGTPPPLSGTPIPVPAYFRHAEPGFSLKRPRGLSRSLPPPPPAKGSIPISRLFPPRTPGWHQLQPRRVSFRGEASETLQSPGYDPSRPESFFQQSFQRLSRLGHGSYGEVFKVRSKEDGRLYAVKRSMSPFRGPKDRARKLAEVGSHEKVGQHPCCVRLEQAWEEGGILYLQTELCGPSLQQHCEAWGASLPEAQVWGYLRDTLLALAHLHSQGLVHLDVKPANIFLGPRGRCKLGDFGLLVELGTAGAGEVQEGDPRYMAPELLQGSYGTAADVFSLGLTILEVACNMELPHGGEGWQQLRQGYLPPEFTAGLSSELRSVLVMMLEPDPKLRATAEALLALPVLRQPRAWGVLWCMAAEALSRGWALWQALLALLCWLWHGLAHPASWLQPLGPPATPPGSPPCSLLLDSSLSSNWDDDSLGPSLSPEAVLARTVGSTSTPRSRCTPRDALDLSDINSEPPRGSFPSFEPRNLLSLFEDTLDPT
MDA-MB-157; 1.37 nM: 40.9%
HuCCT-1; 0.46 nM: 28.1%
HCC1599; 4.12 nM: 68.4%
HCC1599; 333.33 nM: 68.5%
HCC1599; 12.35 nM: 75.2%
HuCCT-1; 4.12 nM: 66.8%
HuCCT-1; 333.33 nM: 37.4%
HCC1599; 0.0169 nM: 24.6%

Set 2 — effect on: thermal unfolding; technique: differential scanning fluorimetry; tested at: 5.5 µM; reading: higher = more unfolded; measurement: SYPRO Orange fluorescence
SMILES: C[C@@H]1CN(c2ccc(-c3cc(C(=O)NCCOCCOCCOCCOCCOCCOCCNC(=O)/C=C/c4[nH]cc(C(=O)N[C@@H](CC(N)=O)c5ccc(F)c(Cl)c5)c4-c4ccc(Cl)cc4F)ccc3F)cc2NC(=O)c2ccc(F)cc2C(F)(F)F)C[C@H](C)N1C
WDR5: WD repeat-containing protein 5 (WDR5, Homo sapiens, UniProt P61964)
DCAF1: DDB1- and CUL4-associated factor 1 (DCAF1, Homo sapiens, UniProt Q9Y4B6)
UniProt Q9Y4B6, sequence (whole entry, looked up): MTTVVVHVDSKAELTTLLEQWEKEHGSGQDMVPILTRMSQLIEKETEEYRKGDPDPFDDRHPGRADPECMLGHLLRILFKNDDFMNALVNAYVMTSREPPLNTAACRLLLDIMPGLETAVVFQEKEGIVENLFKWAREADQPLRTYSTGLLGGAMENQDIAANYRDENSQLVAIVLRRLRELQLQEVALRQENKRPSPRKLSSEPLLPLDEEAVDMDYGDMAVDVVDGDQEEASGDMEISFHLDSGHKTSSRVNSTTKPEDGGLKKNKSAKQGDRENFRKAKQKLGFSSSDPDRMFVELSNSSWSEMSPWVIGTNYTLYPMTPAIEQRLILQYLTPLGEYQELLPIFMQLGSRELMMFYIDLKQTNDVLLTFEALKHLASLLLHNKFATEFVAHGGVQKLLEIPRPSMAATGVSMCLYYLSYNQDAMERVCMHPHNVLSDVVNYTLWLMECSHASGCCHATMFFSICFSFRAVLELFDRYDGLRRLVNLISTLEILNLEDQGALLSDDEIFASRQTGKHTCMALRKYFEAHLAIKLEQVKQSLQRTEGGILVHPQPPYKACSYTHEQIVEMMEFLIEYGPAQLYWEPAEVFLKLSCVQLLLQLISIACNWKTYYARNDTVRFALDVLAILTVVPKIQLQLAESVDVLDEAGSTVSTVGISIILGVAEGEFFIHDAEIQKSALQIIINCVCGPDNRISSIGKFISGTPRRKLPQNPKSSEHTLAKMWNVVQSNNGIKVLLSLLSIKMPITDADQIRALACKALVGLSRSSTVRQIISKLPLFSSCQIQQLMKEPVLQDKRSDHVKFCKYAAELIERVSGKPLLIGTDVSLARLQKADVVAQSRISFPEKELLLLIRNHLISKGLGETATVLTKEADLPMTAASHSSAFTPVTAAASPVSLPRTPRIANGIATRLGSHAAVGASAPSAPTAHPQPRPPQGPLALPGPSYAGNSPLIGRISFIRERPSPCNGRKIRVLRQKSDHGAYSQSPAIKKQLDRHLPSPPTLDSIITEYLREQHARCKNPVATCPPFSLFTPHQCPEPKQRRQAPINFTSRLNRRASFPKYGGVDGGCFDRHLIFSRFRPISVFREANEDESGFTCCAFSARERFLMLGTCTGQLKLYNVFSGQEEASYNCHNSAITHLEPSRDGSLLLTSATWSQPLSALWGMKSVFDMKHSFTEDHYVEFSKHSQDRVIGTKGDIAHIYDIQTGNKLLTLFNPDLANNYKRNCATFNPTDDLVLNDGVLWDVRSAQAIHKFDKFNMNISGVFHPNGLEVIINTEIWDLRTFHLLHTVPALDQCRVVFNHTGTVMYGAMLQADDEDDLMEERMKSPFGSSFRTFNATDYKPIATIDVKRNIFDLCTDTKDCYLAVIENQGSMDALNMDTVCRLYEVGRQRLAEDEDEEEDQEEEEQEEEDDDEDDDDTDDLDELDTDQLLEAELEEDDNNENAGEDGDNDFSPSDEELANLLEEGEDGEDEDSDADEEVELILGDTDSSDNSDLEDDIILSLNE
WDR5; 57.81 °C: 15800 a.u.
WDR5; 64.81 °C: 16100 a.u.
DCAF1; 30.8 °C: 8640 a.u.
DCAF1; 90.01 °C: 32300 a.u.
WDR5; 77.01 °C: 57000 a.u.
DCAF1; 68.21 °C: 50100 a.u.
DCAF1; 38.4 °C: 11000 a.u.

Set 3 — tested at: 1 µM; measurement: remaining binding
SMILES: CC[C@@]1(c2cccc(-c3c(F)cncc3OC)c2)C2=C(Nc3n[nH]cc31)[C@H](F)C(C)(C)CC2=O (single isomer, unassigned)
ALK (Homo sapiens, UniProt Q9UM73); binding, competition with immobilised ligand: 81%
PRKAA2 (Homo sapiens, UniProt P54646); kinase binding, KINOMEscan; baseline: DMSO control: 90%
MAP4K3 (Homo sapiens, UniProt Q8IVH8); kinase binding, KINOMEscan; baseline: DMSO control: 100%
CDK13 (Homo sapiens, UniProt Q14004); binding, competition with immobilised ligand: 70%
ERBB2 (Homo sapiens, UniProt P04626); kinase binding, KINOMEscan; baseline: DMSO control: 67%
CSNK2A1 (Homo sapiens, UniProt P68400); kinase binding, KINOMEscan; baseline: DMSO control: 100%
FGR (Homo sapiens, UniProt P09769); kinase binding, KINOMEscan; baseline: DMSO control: 100%
CDKL3 (Homo sapiens, UniProt Q8IVW4); kinase binding, KINOMEscan; baseline: DMSO control: 100%
FLT3 (Homo sapiens, UniProt P36888, N841I); binding, competition with immobilised ligand: 66%
STK38L (Homo sapiens, UniProt Q9Y2H1); kinase binding, KINOMEscan; baseline: DMSO control: 98%
TEK (Homo sapiens, UniProt Q02763); kinase binding, KINOMEscan; baseline: DMSO control: 65%
MARK3 (Homo sapiens, UniProt P27448); kinase binding, KINOMEscan; baseline: DMSO control: 96%

Set 4 — time: 6 days; measurement: viability
Compound: Cc1ncsc1-c1ccc(C(CO)NC(=O)C2CC(O)CN2C(=O)C(NC(=O)c2ccc(COc3c(-c4c(C)c(F)cc5[nH]ncc45)c(C4CC4)cc4c(N5CC6CC5CN6)nc(OC5CCOCC5)nc34)cc2)C(C)C)cc1 (stereo not shown)
ASPC1; cell growth or viability, ATP luminescence; 0.3 µM: 38% and 25.4% and 25.5% and 29.8% and 33.3% and 25.2%
AsPC-1; CellTiter-Glo; 1 µM: 5.55% and 8.55% and 7.49%
ASPC1; cell growth or viability, ATP luminescence; 30 nM: 84.2% and 84% and 87.6% and 80.9% and 93.1% and 78.4%
ASPC1; cell growth or viability, ATP luminescence; 10 µM: 6.26% and 4.66% and 4.6% and 3.98% and 4.08% and 5.45%
